Results pooled from the literature.
Every numbered part comes from another study and shows a few of its results, in no order.

Set 1
Target: Histone acetyltransferase KAT6A, winged helix 2, GST fusion (KAT6A, Homo sapiens, UniProt Q92794, residues 85-181)
Technique: protein binding microarray
Molecule type: double-stranded DNA, one strand shown
Medium: in vitro
Tested at: not given
Notes: 8-mer, flanks averaged, mean of 2 arrays, mostly near background
Baseline: not given
Reading: higher = stronger binding
Endpoint: E-score
Residues (chain): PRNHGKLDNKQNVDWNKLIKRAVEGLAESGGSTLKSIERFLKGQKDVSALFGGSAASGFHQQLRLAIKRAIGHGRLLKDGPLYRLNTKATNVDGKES
Strand = AGCTGCGG; result = 0.159
Strand = CCATTCCC; result = -0.00052
Strand = TAATCGGA; result = 0.0426
Strand = ACCTCATG; result = -0.178
Strand = CTTAAGAC; result = -0.114
Strand = GCAGTAAC; result = -0.121
Strand = ATTCGTTG; result = 0.065
Strand = ACCTCAGC; result = -0.0627
Strand = CTGCGACC; result = 0.0392
Strand = CGAAAGAA; result = -0.004
Strand = AAGTGAAA; result = 0.0493
Strand = ATATAGAC; result = 0.0998
Strand = ATTGGGGG; result = -0.118
Strand = CAGACGGC; result = 0.0681
Strand = ACTCGGCC; result = 0.092
Strand = ACTAGCGA; result = 0.0626
Strand = CTTCACCA; result = -0.0665

Set 2
Target: Prothrombin, mature alpha-thrombin (F2, Homo sapiens, UniProt P00734)
Technique: aptamer microarray, sandwich
Molecule type: DNA with 2'F-ANA
Medium: in vitro
Tested at: 200 nM
Notes: whole 15-mer aptamer, many near background
Together with: Cy3 exosite-II aptamer, 400 nM
Reading: higher = stronger binding
Endpoint: mean fluorescence intensity
Strand: GGTTGGTGTGGTTGG
Modification = 2'F-ANA at 1 2 3 5 6 9 10 12 14; result = 63.9 a.u.
Modification = 2'F-ANA at 2 7 8 11 12; result = 727 a.u.
Modification = 2'F-ANA at 2 3 5 6 7 14; result = 70.6 a.u.
Modification = 2'F-ANA at 4 5 8 11 12 13 15; result = 79.3 a.u.
Modification = 2'F-ANA at 1 2 6 13 15; result = 112 a.u.
Modification = 2'F-ANA at 2 4 5 6 8 11 12 13 14; result = 50.7 a.u.
Modification = 2'F-ANA at 1 2 3 4 7 10 13; result = 53.5 a.u.
Modification = 2'F-ANA at 2 5 6 7 8 9 10 12 13 15; result = 59.8 a.u.
Modification = 2'F-ANA at 1 3 6 8 10 13 14; result = 58.9 a.u.
Modification = 2'F-ANA at 3 4 10 12 14; result = 226 a.u.
Modification = 2'F-ANA at 6 7 8 9 12; result = 940 a.u.
Modification = 2'F-ANA at 1 2 4 6 7 9 10 15; result = 49.2 a.u.
Modification = 2'F-ANA at 1 6 10 12 13; result = 82.1 a.u.
Modification = 2'F-ANA at 3 4 6 7 8 9 11; result = 514 a.u.
Modification = 2'F-ANA at 3 4 5 6 7 8 10 11 13; result = 47.6 a.u.
Modification = 2'F-ANA at 2 3 6 10 12; result = 434 a.u.
Modification = 2'F-ANA at 3 5 6 8 10 13; result = 51.9 a.u.
Modification = 2'F-ANA at 1 3 5 6 10 11 14 15; result = 59 a.u.
Modification = 2'F-ANA at 2 3 9 12 13 15; result = 878 a.u.
Modification = 2'F-ANA at 1 3 4 5 6 8 9 13; result = 69.6 a.u.
Modification = 2'F-ANA at 3 4 5 7 8 9 11 15; result = 85.4 a.u.
Modification = 2'F-ANA at 6 7 9 11 12; result = 591 a.u.

Set 3
Target: Sal-like protein 4, full length isoform B (SALL4, Homo sapiens, UniProt Q9UJQ4-2, residues 1-616)
Technique: universal PBM
Molecule type: double-stranded DNA, one strand shown
Medium: in vitro
Tested at: not given
Notes: 8-mer, flanks averaged, mean of replicates
Reading: higher = stronger binding
Endpoint: E-score
Strand = GCGTTACC; result = -0.197
Strand = ATGCGACG; result = -0.0648
Strand = CGTACCAC; result = -0.027
Strand = AAAGTAAT; result = 0.306
Strand = AGTAAGAC; result = 0.00084
Strand = ATTATGGC; result = 0.215
Strand = AAACTGTC; result = -0.16
Strand = TGTAGAAA; result = 0.154
Strand = CGGGTAAC; result = -0.185
Strand = AGACAGTG; result = -0.0757
Strand = ATCAGCGA; result = -0.0531
Strand = CGGAACGA; result = -0.14
Strand = AACGGCGC; result = -0.369
Strand = AGACGGAG; result = -0.173
Strand = CCCCTCGC; result = -0.204
Strand = ATTCTAAA; result = 0.281
Strand = CTTAAATC; result = 0.113
Strand = GCGAAGCC; result = -0.201
Strand = AATTGCTC; result = -0.077
Strand = ACAGCCCG; result = -0.284
Strand = ACAACCAA; result = 0.0231
Strand = GGGACACA; result = -0.168
Strand = CCAAACAC; result = -0.0214

Set 4
Target: RNA binding protein fox-1 homolog 2, RRM domain, GST-SBP tag (RBFOX2, Homo sapiens, UniProt O43251-10, residues 100-194)
Technique: RNA Bind-n-Seq
Molecule type: RNA
Medium: in vitro
Tested at: 365 nM
Notes: natural RNA segment, single round, ends assumed
Baseline: no-protein control
Reading: higher = stronger binding
Endpoint: RBNS enrichment (R)
All sequences stand within: GGGAGUUCUACAGUCCGACGAUC … UGGAAUUCUCGGGUGCCAA
Residues (chain): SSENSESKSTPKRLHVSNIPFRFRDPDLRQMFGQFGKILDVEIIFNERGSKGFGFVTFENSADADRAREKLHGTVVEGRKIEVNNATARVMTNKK
Strand = CUGAGAAAUAGAAGCUAAAGAAUAAUUAGAGCUGAAAGGCUUCCUUAUAUCAAACCAUCUAACAUUUUUCUUAGGGCUGUUAAACUAGACAUAAAAUUGAUUUAUCUUUC; result = 0.376
Strand = UUCUGCUGAAAGGUGAUUAUAUUUGACAGGUGCUUAGACAUUUGGCUAAGAUAUUUUCCAAUCAGUCCCCUUUGUAUUAGUGGGGCAUUUGUGGUUAGUUUGAAAAACAG; result = 0.327
Strand = AAGUAAUUUGUUGACACGAAAAUUUUGGAGGAACCAAUUGAAAACACACUUCCAGUCUAGAUGAUGCUUUGUGUGAUACAUUAAGUUCUUAUUUUGGAUUAAAAGAAGUU; result = 0.519
Strand = UCCCUGAGUUCUGCCGGUGAGCUGCCGUCACUGGGAUGCGCCAAGGACCUUUCCUCCCCGGUCUCAGAGAUGCACAUCUCUUUGAGGAUCGGCUUGGCUGGAAGACAGGG; result = 0.616
Strand = AGGAGGAGGAGAAGGAGCCCCUCAGCAGAGUGGUGCAGUUUCGCUCAGAGCUUGUCUCCUUGGCUUCCAACCCCAGAAAUGCCUGCUGGGCCUUAAGCUUUCCAGGGGCC; result = 1.29
Strand = CCGCAAAGAAAUUGAGUUGAUUAGGCAAGUCUAUACAAUUAGAGGCAAAGGUCACAGUGAUGCAAAAGACAAAACUGAUGUCCUUAUCCUUAGACAAUUAACCACCAAAU; result = 0.536
Strand = AGUCACUGAGCCAGACGGUCGGUUGGAACAUGAGACUCGAGGCUGAGCGUGGAUCUGAACACCACAGCCCCUGUACUUGGGUUGCCUCUUGUCCCUGAACUUCGUUGUAC; result = 0.317
Strand = GACAGGGGGGGUCAGCAGGAGGCUGGCUGCUUCCUGCCCUCCCCCCUCUCCCUGGGCCUACCAUGCUGCUUUUGUGCCAAGGUUAGCCAAUCCCUCCCUGCCCUAUCCUG; result = 0.473

A few entries again (set 3):
Strand = ATTCTAAA; result = 0.281
Strand = ATCAGCGA; result = -0.0531
Strand = ACAACCAA; result = 0.0231
Strand = AGTAAGAC; result = 0.00084
Strand = AAAGTAAT; result = 0.306
Strand = CTTAAATC; result = 0.113
Strand = GCGTTACC; result = -0.197
Strand = AACGGCGC; result = -0.369
Strand = CCAAACAC; result = -0.0214
Strand = ATTATGGC; result = 0.215
Strand = AAACTGTC; result = -0.16
